Results from different studies.
Compare with care: the assays were run in different laboratories. ± gives the spread as reported.
Cell line: MDA-MB-231

`C[C@@H]1CC[C@@H]([C@@](O)(CNCc2ccc(F)cc2)COCc2ccc(F)cc2)[C@H](OCc2ccc(F)cc2)C1` has an inhibition of 99.3% (cell growth or viability, MTT; 30 µM, 72 h).
`CC(=O)OCC1=C2C(C)=CC(C)=[N+]2[B-](C)(C)n2c(C)cc(C)c21` gave an EC50 of greater than 50000 nM (cell viability, MTT; concentration not given, 72 h, irradiated 15 min up to 470 nm).
The inhibition of `COc1ccc(COC[C@](O)(CNCc2ccccc2)[C@@H]2CC[C@@H](C)C[C@H]2OCc2ccc(OC)cc2)cc1` is reported as 97.5% (cell growth or viability, MTT; 10 µM, 72 h).
With `CCCNC(=O)[C@H]1O[C@@H]1C(=O)N[C@H](C(=O)N1CCC[C@H]1C(=O)OCC1=C2C(C)=CC(C)=[N+]2[B-](C)(C)n2c(C)cc(C)c21)[C@@H](C)CC` the viability was roughly 40% (MTT; 10 µM, 4 h, irradiated 460-470 nm, 1 min; relative to: DMSO).
With `Oc1ccnc(-c2cc(O)ccn2)c1.[Cl-].[Cl-].[Ru+2].c1ccc(-c2ccnc3c2ccc2c(-c4ccccc4)ccnc23)cc1.c1ccc(-c2ccnc3c2ccc2c(-c4ccccc4)ccnc23)cc1` the EC50 was 300 nM (CCK-8 viability; white light 2 h).
For `CC(=O)[O][Pd][c]1ccccc1-n1nc(C)cc1C.CC(=O)[O][Pd][c]1ccccc1-n1nc(C)cc1C`, “G2 phase cells” read 24.9 ± 2.05% (PI flow cytometry; 25 µM, 24 h).
`CC(=O)OC[C@H]1O[C@@H](n2cc(CSc3nc4ccccc4n3Cc3cn([C@@H]4O[C@H](COC(C)=O)[C@@H](OC(C)=O)C(OC(C)=O)[C@H]4OC(C)=O)nn3)nn2)[C@H](OC(C)=O)C(OC(C)=O)[C@@H]1OC(C)=O` (stereo in doubt) gave a cytotoxicity of 92% (MTT; 125 ppm).
The inhibition of `C[C@@H]1CC[C@@H]([C@@](O)(COCc2ccccc2)Cn2cnc3ccccc32)[C@H](OCc2ccccc2)C1` is reported as 98.3% (cell growth or viability, MTT; 30 µM, 72 h).
For `COc1ccccc1-c1ccncc1C(=O)Nc1nnc(OCc2ccc(Cl)cc2)s1`, the colony survival was 87.2% (3 µM, mean of 3 replicates; relative to: untreated).
With `CCc1c(C)c2ccc(OC(C)C)c(C)c2oc1=O` the viability was 5.84% (cell growth or viability, MTT; 500 µg/mL).

Some of these lines once more:
`CC(=O)OCC1=C2C(C)=CC(C)=[N+]2[B-](C)(C)n2c(C)cc(C)c21` gave an EC50 of greater than 50000 nM (cell viability, MTT; concentration not given, 72 h, irradiated 15 min up to 470 nm).
